# Literature values that unrelated publications cite.
# Compare with care: the assays were run in different laboratories.
Structure (SMILES),target or system,test,test system,setting,quantity,value
Cc1ccccc1Oc1cc(-n2c(=O)cc(C(F)(F)F)[nH]c2=O)c2ccccc2c1Cl,BCAT1,biochemical activity,,,IC50,27 nM
O=C[C@H](F)[C@@H](O)[C@H](O)[C@H](O)CO [fluorine-18 labelled],,,,,absorbed dose myocardium,32.8 µGy/MBq
COCCOc1nc(-c2ccc(Cl)nc2)nc2c1CN(C(=O)c1ncn3ccccc13)CC2,PDE10A (human),cellular activity,,,IC50,49 nM
CCOC(=O)c1ncn2c1CN(C)C(=O)c1cc(F)ccc1-2,Toxoplasma gondii,parasite growth,,"concentration not given, published screen",activity class,inactive
O=C(O)CCCOc1ccc(F)cc1-c1cc(-c2ccccc2C(F)(F)F)n(-c2ccccc2)n1,FABP3,binding,,,Kd,24 nM
C[C@@H]1CN(c2cc(-c3n[nH]c4ccc(OC5(C)CC5)cc34)ncn2)C[C@H](C)O1,CLK4,"enzyme activity, kinase panel",,,IC50,255 nM
CC1(C)C(C=C(Cl)Cl)C1C(=O)OCc1cccc(Oc2ccccc2)c1 (stereo not drawn),"MDR1, human",,B16/F10 overexpressing human MDR1,micromolar,MDR1 inhibition,inhibited
Cc1ccccc1Oc1cc(-n2c(=O)cc(C(F)(F)F)[nH]c2=O)c2ccccc2c1,BCAT1,cellular activity,,,IC50,6200 nM
COC(=O)C[C@](O)(CCCC(C)(C)O)C(=O)O[C@@H]1C(OC)=C[C@]23CCCN2CCc2cc4c(cc2[C@H]13)OCO4,Toxoplasma gondii,parasite growth,,"concentration not given, drug repurposing screen",activity class,inactive

# Repeated from above:
Structure (SMILES),target or system,test,test system,setting,quantity,value
CC1(C)C(C=C(Cl)Cl)C1C(=O)OCc1cccc(Oc2ccccc2)c1 (stereo not drawn),"MDR1, human",,B16/F10 overexpressing human MDR1,micromolar,MDR1 inhibition,inhibited
